Measured values pooled from the literature.
A part holds a random share of what one study measured.

Study 1 — method: RNA Bind-n-Seq; form: RNA; medium: in vitro; concentration: 100 nM; relative to: input RNA pool; reading: higher = stronger binding
Target: RING finger protein unkempt homolog, zinc fingers 1-6, SBP tag (UNK, Homo sapiens, UniProt Q9C0B0, residues 30-357)
UniProt Q9C0B0, sequence (30-357, looked up): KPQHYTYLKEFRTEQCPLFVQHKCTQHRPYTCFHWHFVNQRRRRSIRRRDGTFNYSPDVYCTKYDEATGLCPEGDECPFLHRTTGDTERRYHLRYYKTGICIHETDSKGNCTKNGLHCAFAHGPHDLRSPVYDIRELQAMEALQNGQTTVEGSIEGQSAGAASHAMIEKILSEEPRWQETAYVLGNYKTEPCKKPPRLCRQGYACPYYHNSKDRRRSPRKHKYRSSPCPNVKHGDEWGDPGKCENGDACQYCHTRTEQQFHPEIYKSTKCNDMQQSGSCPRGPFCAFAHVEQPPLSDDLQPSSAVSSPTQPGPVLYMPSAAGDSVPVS
Setting: RNA with constant flanks, vertebrate orthologous sites, ends assumed
`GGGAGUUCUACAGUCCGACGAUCAGCCACCCAAGGAUUCAGGACUGGUUUUACAAAUAUGCCAAGUAGAUAUGGAACUAACAAUAGAAUUGGACAACCAAGACCAUAAGGUACUCUAAUUUACUUUAAUUUAUUUUAUGAGGACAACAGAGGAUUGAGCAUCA` gave a bound/input enrichment of 0.563 ratio.
With `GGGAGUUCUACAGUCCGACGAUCUGGGUUAUUCCUAUUAUUAUCAAGUAGCUGGAAUUGUGAAGGUCGGAGUAGUUAGAUCUUUAGCUUUUAUUCCUUAUUUUUUUUUUGUAUUACUCUCCAUGUGUAUAAAUUAUUGAUCAUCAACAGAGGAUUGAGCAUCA` the bound/input enrichment was 3.53 ratio.
The bound/input enrichment of `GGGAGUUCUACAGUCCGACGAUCUAUCCCUAGGAUGAAGCUCUUACAUCAGGUGUCACGAGUCUGGAGAACAGAUGGGUUGAGCAGUUGUGUUUAUAAAUUACUCUCUGUGGAUUAUAAUCCUCUAUAUAUCAACAUCACAGUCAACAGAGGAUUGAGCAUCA` is reported as 0.382 ratio.
For `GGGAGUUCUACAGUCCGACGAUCAAAUUUAUUUUAUGCCAUGGACUCCUUAUCGCACGGACACUUUGAUAGAAUAUGCUUCUCUGGAGGACUUCAAAAAUGGUCGUCAAACAACAACAUACAAACUUCCCAACAGAGUGGAUGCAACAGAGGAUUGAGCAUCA`, the bound/input enrichment was 1.24 ratio.
For `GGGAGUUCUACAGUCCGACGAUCCUGCUGACUCGCUCAUCGGGAGAGCCGCACACAUAGCUGUUCUUGAUUCGGAAAUAUUUUUAGAGAAGUUUUUUCUGGUUGCUGCCCUCAAAUAUUUCCAGUAGGACAGAAGCAUCAUUACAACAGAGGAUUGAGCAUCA`, the bound/input enrichment was 0.479 ratio.
With `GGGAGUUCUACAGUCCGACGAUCCUCAGUCCCCUGGGCCGGGACACUUGUUUUUUAACAUCUUGAAAUUUAACUCUGUGCUUGUAGAAGACUGUAACCUUUUUGUCUUUUUUUUUUUUUUUUUUUUUAAACAAUCUCCACCUCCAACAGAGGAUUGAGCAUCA` the bound/input enrichment was 2.21 ratio.
`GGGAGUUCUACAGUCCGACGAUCUGUGCUUACGCUCUUCUAGGGAAGAGAUGAAUUGGGGAGAACUGUCCCCUUUUUAUAGAUCAGUUUGUUUCUAAAUUAUGACCAAAAAAUAUUUUGCUAUUUCUUUCUUUAUAUAUGGACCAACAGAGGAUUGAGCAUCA` has a bound/input enrichment of 0.358 ratio.
With `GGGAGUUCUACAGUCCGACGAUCUUCUCUGAGCGGCAGCCUUCCGUCUGUGGCCGACUCGCACUCCAGCCACUUCUCAGAGUUCAGCUGCUCUGACCUGGACGCCUGCAGACCUACAUGCUACGAGUCUCACAUCCGCCAUCCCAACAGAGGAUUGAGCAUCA` the bound/input enrichment was 0.484 ratio.
`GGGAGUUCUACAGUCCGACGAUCUAUUAGCAUCAUACCAGCAUAUUAACCUCUCGUCUGUGCACAGCUUCAAAUGUUACCGUCUAGUUAGAUUUUUAUUUAAAAUAUGAAAAACUGCUUUUCCCAAGAAGUUUUUUAAAAACACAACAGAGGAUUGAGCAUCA` gave a bound/input enrichment of 2.65 ratio.
`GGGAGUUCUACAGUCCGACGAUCAGGACCUCCAGUAGGCAAAUUCAGGGGGAGAGAGGCUUCAGGGAAUAUAAACCCAGAUAGCAAUGAUCAUGAAGUAUAACCUUGACAUAACUAAAUGAUUUGGGGGAGUGAUGGCAACUUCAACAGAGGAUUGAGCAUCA` has a bound/input enrichment of 1.27 ratio.
For `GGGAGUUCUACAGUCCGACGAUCUGUGUGGGUUGAGGGUAGAAGGGAGGGAAGGACAGGACAGUGCAGAGUCUUUGGAAAGGUAGGGAUAACAGUUCUAAGUGGGCCUUUAGCUUAGAAACUUUUAGAAGUAUCUGCUGUGGGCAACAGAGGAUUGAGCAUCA`, the bound/input enrichment was 0.59 ratio.

Study 2 — method: RNA Bind-n-Seq; form: RNA; medium: in vitro; concentration: 365 nM; relative to: no-protein control; reading: higher = stronger binding
Target: RNA binding protein fox-1 homolog 2, RRM domain, GST-SBP tag (RBFOX2, Homo sapiens, UniProt O43251-10, residues 100-194)
Setting: natural RNA segment, single round, ends assumed
Construct (chain): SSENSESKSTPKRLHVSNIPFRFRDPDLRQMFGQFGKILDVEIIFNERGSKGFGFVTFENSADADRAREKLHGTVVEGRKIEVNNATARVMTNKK
`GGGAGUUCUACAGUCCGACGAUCAUUUAUGUAACAAUUCCUUAAAGCCAUUCAAAUGGCUAACUAUUUAAUUUCUUUAGGACAGUUGUAAAGGUCUCUCUCCUGAGGACAAUGACUUGGAAGAACUGGGGCACUGGAAUUCUCGGGUGCCAA`: “RBNS enrichment (R)” 2.73.
`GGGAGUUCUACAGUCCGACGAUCUGUAAAUGGUAACUGACAUUUAAUUAUUAGAAGUACUUACCCCUGCCUUCCUCCAUUUUUAUUCAUGGCUACUUGAGAAAGCAAAAGGAAAAAAUAAUAGUUAUCAGUAGUGGAAUUCUCGGGUGCCAA`: “RBNS enrichment (R)” 0.428.
Under “RBNS enrichment (R)”, `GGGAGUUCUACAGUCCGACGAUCGUCUCUCUGGGCUGCAGAGUCUGCCCCACAUGUGGCCAUGGCCUCUGCAACUGCUCAGCUCUGGUCCAGGCCCUGUGGCAGGACACACAUGGUGAGCCUAGCCCUGGGACUGGAAUUCUCGGGUGCCAA` is recorded as 0.426.
Under “RBNS enrichment (R)”, `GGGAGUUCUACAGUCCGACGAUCCUGCAAAGGAUUAUGGGAAACUCCAGGACUCUUCUACCCAGCUCCUGCCUGCAAAGGUUCCCUGCAUGCCUCUUCCCCUGAGCCCAGGGGUACCUGGUCCCCAUUUCCUAUGGAAUUCUCGGGUGCCAA` is recorded as 9.74.
For `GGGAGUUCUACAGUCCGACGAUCUGCACCAGAGCAUCUCAGCAGGCAGGCAUUUUGUGGCAUUUAUGGCCUGUCACUCCCUGUAUUUCUCCCUCCAUCCAGAGCUCGCUCCACACUCCUGCUCACCCAGCAAGUGGAAUUCUCGGGUGCCAA`, “RBNS enrichment (R)” read 0.866.
For `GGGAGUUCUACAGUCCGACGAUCGGGAAUUUGCUCCUGUUCUGUCACUUGUCAUGGUCUUUCUUGGUAUUAAAGGCCACCAUUUGCACAAUGUUCCUGUUUUGGGUAACUUGGAUUAUUGUCAGAAUUGUUCUUGGAAUUCUCGGGUGCCAA`, “RBNS enrichment (R)” read 0.986.
`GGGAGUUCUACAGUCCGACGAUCUAUUGCAUGUCUAAAAGCUAGUGCCCUGAGUACUCAUGAAUUCGAUUCCAAGAGUAGUGGUGUAAAUUGCCUUGGAGCCCUGCAUCCACGUCUUGUAACUAACUUUUGAAUGGAAUUCUCGGGUGCCAA`: “RBNS enrichment (R)” 10.3.
`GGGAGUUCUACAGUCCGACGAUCGUCUGUAUGUGGAAGACAUGUUCCCAUGGAUCAUAUGUGAAGAUGUCAAUAAGCUUGCAUUAAGCCACCUGCUUUGUAAGUGGAUUGAUUAAUAAAUAACUUAUAUUUCUUGGAAUUCUCGGGUGCCAA`: “RBNS enrichment (R)” 0.46.
For `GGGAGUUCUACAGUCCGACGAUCCCGUGCCCGCUGACUGUCUGGGCAGCCUUGCAGUGGGGGCUGAUGUGCUGUCUUAUUUUUGCUGUCACAAUUUGUAAACUCAGUGUGACUUCUAUAUGAGUGUUUUAACCUGGAAUUCUCGGGUGCCAA`, “RBNS enrichment (R)” read 0.944.
`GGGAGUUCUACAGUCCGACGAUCAGUGUCCCUUUCCUCUCAGAGCCAAGUUCCAUUCCUGGAGUUAUCCUCUAGGCAUGAAGCCUUCCAGGGGCCGGGAUGGUAGGGAGUUUCACCCCUUCCUCCCUCCCCAAUGGAAUUCUCGGGUGCCAA`: “RBNS enrichment (R)” 0.196.
`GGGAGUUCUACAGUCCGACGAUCGUGCAGAACGUCUGGAUGGACACCCAUCAUGCAUCAGUGCAAUAGAGUCUAGUAAGUGUCUCUAGCCAGGCUUGUCAGUUGUGCAGGAAACAAGGCCUGGUCCUAGCAAAUGGAAUUCUCGGGUGCCAA`: “RBNS enrichment (R)” 1.42.
`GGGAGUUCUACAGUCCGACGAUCAGCUGUUAAUUCUUUCAUUCAUGUCCCUGCUGAGACACUGAUAUUAGCAACUUAGAGUUGGUGAGUUUAAUCUUCAGUCAUACCAGCUCCAAGAGAUGAGGCCUCAGUCCUGGAAUUCUCGGGUGCCAA` — result for “RBNS enrichment (R)”: 0.313.

Study 3 — organism: Saccharomyces cerevisiae; effect on: binding; method: competitive growth deep sequencing; form: peptide; strain: cyclin E1-Cln2 fusion strain; setting: peptide tiling library; reading: direction not given
For `PFSENVSAVQKLDFSD`, the enrichment score was 1.9.
The enrichment score of `IQKKLRFEDTLEFVGF` is reported as -0.88.
For `TSPGPVLLHPSPSTTQ`, the enrichment score was 0.825.
`TRRRLFVENDSP` gave an enrichment score of 2.67.
The enrichment score of `ALLRRLQDVANDRGSH` is reported as -1.54.
The enrichment score of `QDYERRLLRQIVIQNE` is reported as -0.68.
`CFRCLLFSFSGRSGVE` gave an enrichment score of -1.17.
The enrichment score of `SPREGHMMDALYAQVK` is reported as 0.799.
For `GQLVIPLDELTLDTSF`, the enrichment score was 2.69.
For `LAKRALKYTD`, the enrichment score was -0.684.
`KRRLDLETDHQY` has an enrichment score of 0.959.
The enrichment score of `KPITLDTTDFQESFVT` is reported as 0.646.
`SDSTVTKLDFDLEP` gave an enrichment score of 1.36.

Study 4 — method: RNA Bind-n-Seq; form: RNA; medium: in vitro; concentration: 1 µM; setting: whole 134-nt RNA, ends assumed; added: 150 mM KCl; relative to: input library; reading: higher = stronger binding
Target: Ras GTPase-activating protein-binding protein 1, C-terminal RGG region (G3BP1, Homo sapiens, UniProt Q13283)
UniProt Q13283, sequence (whole entry, looked up): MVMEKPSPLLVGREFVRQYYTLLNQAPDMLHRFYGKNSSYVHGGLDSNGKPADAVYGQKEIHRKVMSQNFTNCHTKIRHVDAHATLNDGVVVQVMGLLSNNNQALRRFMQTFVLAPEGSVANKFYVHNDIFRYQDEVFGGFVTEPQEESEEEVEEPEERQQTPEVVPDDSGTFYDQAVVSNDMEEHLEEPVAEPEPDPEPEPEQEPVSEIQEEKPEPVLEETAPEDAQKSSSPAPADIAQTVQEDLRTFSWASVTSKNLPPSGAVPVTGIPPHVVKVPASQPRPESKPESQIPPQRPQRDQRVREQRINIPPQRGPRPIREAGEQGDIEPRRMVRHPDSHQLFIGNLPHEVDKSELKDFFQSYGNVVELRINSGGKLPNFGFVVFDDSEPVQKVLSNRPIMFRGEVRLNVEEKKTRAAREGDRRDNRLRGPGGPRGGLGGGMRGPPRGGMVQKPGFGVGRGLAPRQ
`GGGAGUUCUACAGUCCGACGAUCUGGGAGGUGGAUUUUGUUUAUUUUUUUAGCUCAUAUCCAGGGGUGGGAAUUUUUUUUUAAUAUGUGUCAUGAAUAAAGUUGUUUUUGAAAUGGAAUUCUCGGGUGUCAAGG` has a log2 enrichment of 3.29.
With `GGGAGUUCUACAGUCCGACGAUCUUUGAAAAAGAAGAAAAAGAAAAAGAAGGGUAAGGCAUUAAAAAAGUCUUUAUAAAUUUUCUCCAAAAUAAAUGUUUGAUUUUAGCCCUAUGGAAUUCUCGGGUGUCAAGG` the log2 enrichment was -1.82.
`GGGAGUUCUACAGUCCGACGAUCUAACUCUAGAGGAGGAUCUGAUGGAUAUGGCAGUGGACGUGGAUUUGGGGAUGGCUAUAAUGGGUAUGGAGGAGGACCUGGAGGUGGCAAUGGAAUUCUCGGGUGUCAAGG` gave a log2 enrichment of -0.0227.
The log2 enrichment of `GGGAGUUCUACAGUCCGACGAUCCACAGACAACACGCACCCACACAGACACAAAAGGAAGGGGUUGGGAUGGGGACAGGGUGCACAGCAGGGCGGGGUAGGACCCCAGCCCCUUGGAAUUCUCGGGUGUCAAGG` is reported as -0.25.
The log2 enrichment of `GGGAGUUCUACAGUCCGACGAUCUCAAGUCCUGUGCUACACAUCGUAUGUACCGAAUCGGGGCCGGGGCCGGGGCCGGAAAGUAUUAUGUUACGCCGUUCGGAUCUGCACUUCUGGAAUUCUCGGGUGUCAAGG` is reported as -2.66.
The log2 enrichment of `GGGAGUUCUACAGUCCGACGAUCUCAAGUCCUGUGCUACACAUCGUAUGUACCGAAUCGGAAAGGGGAAAGGGAAAGGAAAGUAUUAUGUUACGCCGUUCGGAUCUGCACUUCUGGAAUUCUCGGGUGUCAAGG` is reported as -1.54.
`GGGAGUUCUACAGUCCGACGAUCCUGUGCUACACAUCGUAUGUACCGAAUCGGGGUUUUUUUGGGGUUUUUUUGGGGUUUGGGGAAAGUAUUAUGUUACGCCGUUCGGAUCUGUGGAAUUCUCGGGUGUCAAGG` has a log2 enrichment of -0.471.
The log2 enrichment of `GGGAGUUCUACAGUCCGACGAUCUCCUGUGCUACACAUCGUAUGUACCGAAUCAAAUUUAAACCCCCCCAAACCCCCCCAAAAAAGUAUUAUGUUACGCCGUUCGGAUCUGCAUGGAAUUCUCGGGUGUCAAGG` is reported as -0.59.
For `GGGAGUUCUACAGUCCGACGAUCUAACUUUAGAGGAGGAUCUGAUGGAUAUGGCAGUGGACGUGGCUUUGGGGAUGGCUAUAAUGGGUAUGGAGGAGGACCUGGAGGUGGCAAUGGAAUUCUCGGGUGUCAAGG`, the log2 enrichment was -0.948.
The log2 enrichment of `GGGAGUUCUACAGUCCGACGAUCGUCCUGUGCUACACAUCGUAUGUACCGAAUCGGGGCCCCCCGGCCCCCCGGCCCCCCGGAAAGUAUUAUGUUACGCCGUUCGGAUCUGCAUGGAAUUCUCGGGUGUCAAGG` is reported as -0.992.

A few entries again (study 3):
The enrichment score of `QDYERRLLRQIVIQNE` is reported as -0.68.
For `GQLVIPLDELTLDTSF`, the enrichment score was 2.69.
`KRRLDLETDHQY` has an enrichment score of 0.959.
For `TSPGPVLLHPSPSTTQ`, the enrichment score was 0.825.
